Experimental data gathered from unrelated publications.
Each numbered part is a random draw from the data of one study; scales do not carry over between parts.

Study 1
Target: Interferon regulatory factor 7, full length, phosphomimetic (IRF7, Homo sapiens, UniProt Q92985, residues 1-503, S101K/S471D/S472D/S475D/S476D/S477D/S483D/S484D/S487D)
Method: protein-binding microarray
Form: double-stranded DNA, one strand shown
Medium: in vitro
Concentration: 250 nM
Notes: 60-bp whole probe
Added: salmon DNA 0.4 mg/ml
Baseline: random background probes
Direction: higher = stronger binding
Shared flanks, not repeated: GCCTAGCAC … GTCTTGATTCGCTTGACGCTGCTG
Residues (chain): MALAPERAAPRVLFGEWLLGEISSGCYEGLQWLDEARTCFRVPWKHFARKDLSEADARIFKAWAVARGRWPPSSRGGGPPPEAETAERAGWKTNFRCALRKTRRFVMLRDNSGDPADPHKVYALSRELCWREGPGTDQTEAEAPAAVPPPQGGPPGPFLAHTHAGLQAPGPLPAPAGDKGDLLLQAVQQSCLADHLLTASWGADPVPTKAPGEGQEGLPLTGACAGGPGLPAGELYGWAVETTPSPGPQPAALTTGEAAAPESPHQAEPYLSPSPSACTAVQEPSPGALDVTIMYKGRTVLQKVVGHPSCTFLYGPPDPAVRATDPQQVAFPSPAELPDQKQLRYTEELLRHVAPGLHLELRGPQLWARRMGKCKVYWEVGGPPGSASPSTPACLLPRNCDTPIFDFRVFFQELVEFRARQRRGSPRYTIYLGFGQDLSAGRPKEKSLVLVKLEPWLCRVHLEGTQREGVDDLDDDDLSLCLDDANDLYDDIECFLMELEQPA
Strand | log fluorescence [z-score]
GCATCTCGGAGATCTCGAAGCGTGCTA | 0.614
TCATGTTGCAAATATTGCACTGTGCTA | 0.0749
AACGGTATCCTACTGCTGACGTGCTAG | -0.153
GACGGTTTCCTTCTCCTAACGTGCTAG | 3
AAGGGTTAAAATTTTGCTTCGTGCTAG | -0.569
TTAGGACTGGGTCTCGGTTCGTGCTAG | 2.84
GACGGTTTCGCACTGGGGACGTGCTAG | 3.6
GACGGTCTCAGTATCGAGACGTGCTAG | 0.127
CTTAGCTTGGGTCTGTGCCTGTGCTAG | -0.659

Study 2
Target: PABPC1L2, full length, GST fusion (mouse, UniProt A0ABA7IW68)
Method: RNAcompete
Form: RNA
Medium: in vitro
Concentration: 20 nM
Notes: 7-mer, probes averaged, single round
Baseline: mean of 7-mers
Direction: higher = stronger binding
Target sequence (chain): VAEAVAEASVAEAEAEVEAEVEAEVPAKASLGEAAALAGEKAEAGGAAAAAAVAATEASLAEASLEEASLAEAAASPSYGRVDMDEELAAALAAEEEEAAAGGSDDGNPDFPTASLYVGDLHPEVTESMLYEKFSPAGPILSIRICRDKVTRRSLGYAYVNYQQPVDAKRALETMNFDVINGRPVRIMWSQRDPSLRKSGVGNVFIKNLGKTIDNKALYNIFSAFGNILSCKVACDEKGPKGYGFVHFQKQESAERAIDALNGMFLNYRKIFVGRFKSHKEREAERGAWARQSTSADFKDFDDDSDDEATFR
Strand | 7-mer Z-score
UGGUCAG | -0.101
CCGGAUC | -0.249
GGUCAAU | -0.0174
ACGCCAG | -0.166
CCGGUGA | -0.103
GGACGUU | -0.126
ACACAUG | 0.00979
UUUAGUC | -0.302
AGGUUAG | 0.00979
UAGGUAA | -0.05
GACGAUG | -0.146

Study 3
Target: RING finger protein unkempt homolog, zinc fingers 1-6, GST-SBP tag (UNK, Homo sapiens, UniProt Q9C0B0, residues 30-357)
UniProt Q9C0B0, sequence (30-357, looked up): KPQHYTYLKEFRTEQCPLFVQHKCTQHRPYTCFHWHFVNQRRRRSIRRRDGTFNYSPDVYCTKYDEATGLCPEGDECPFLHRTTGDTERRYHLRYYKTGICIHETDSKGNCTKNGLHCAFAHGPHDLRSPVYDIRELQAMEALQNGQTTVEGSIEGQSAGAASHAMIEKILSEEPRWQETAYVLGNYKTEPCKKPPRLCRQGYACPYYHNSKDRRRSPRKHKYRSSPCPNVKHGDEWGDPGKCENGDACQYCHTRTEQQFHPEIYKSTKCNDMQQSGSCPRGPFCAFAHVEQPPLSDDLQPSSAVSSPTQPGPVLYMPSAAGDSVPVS
Method: RNA Bind-n-Seq
Form: RNA
Medium: in vitro
Concentration: not given
Notes: RNA with constant flanks, ends assumed
Baseline: input RNA pool
Direction: higher = stronger binding
Strand | bound/input enrichment
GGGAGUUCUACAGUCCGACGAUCCCUGAAGAAAACCCUGGGUCACCUUCUAGAGAAUCACCUCUUUCAGCACCUUCAGAUCAUUCUCCGGUCUAAGGUGUAACACCUUUGCAGUACGUCAUGGGUGAUCUAAUACUUCCCCUUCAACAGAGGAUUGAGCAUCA | 0.173 ratio
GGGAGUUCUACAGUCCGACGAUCUCUUAAUCAUAGUCUACCAUCAAAUACUUUAGGAGUAUCCUUAAUGUUUAGAUAGAAUAUCCGCAGCAUGCAAUAAUUACAUCCUAAGUUCUCAAGCAGAGGCAGUCUAUUGCAAGGACCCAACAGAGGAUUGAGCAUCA | 2.9 ratio
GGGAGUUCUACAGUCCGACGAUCGCACUUGGCAAUGUAAUAAGUGCCUUGGGAGACAAGAGCAAGAGGGCCACACAUGUCCCCUACCGAGAUUCCAAGCUAACAAGACUACUACAGGAUUCCCUCGGGGGUAAUAGCCAAACACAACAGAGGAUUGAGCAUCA | 0.174 ratio
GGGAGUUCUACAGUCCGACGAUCACCCGCUACACCCAGGGAACAGGUGGUGAUGAGGUUGAUGAUUCAGUGAGUGUAAAUGACACCGAUUUAAGCCUGUACAUCCCAAGAGAUGUAGAUGAAACAGGUAUUACUGUAGCCAGUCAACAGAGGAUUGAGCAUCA | 0.148 ratio
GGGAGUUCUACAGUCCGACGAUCUCUUUGUUUGUAACUUAUCUGUAAAAGGUUUCUCCCUACUGUCAAAAAAAUAUGCAUGUACCGUAAUCCGGACUUCAUUCCUCCAUGUUUUCUUCCCUUAUCUUACUGUCAUUGUCCUAACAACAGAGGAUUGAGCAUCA | 0.419 ratio
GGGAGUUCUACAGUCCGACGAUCGCUGAACCUGAUAUUAUUGAACAACUGGUGGAAUUUGCUUAUACUGCUAGAAUUUCCGUGAACCGCAACAAUGUUCAGUCUUUGCUGGAUGCAGCAAACCAAUAUCAGAUUGAACCUGUGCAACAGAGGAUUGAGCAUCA | 0.26 ratio

Further values, each from its own experiment
Molecule | target | assay | system | setting | scale | endpoint | value
PhoQ, residues 284 288 289 292 302 303 NLSRDF | PhoP, residues 12 14 15 18 19 NMSSL (Escherichia coli, UniProt P23836) | Sort-seq, item: YFP reporter | E. coli | PhoQ-PhoP variant library, added: 10 µM Mg2+ | baseline: high Mg2+ state, higher = stronger signaling | fold induction | 6.69

Excerpt of the above (study 3):
Strand | bound/input enrichment
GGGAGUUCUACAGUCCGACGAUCCCUGAAGAAAACCCUGGGUCACCUUCUAGAGAAUCACCUCUUUCAGCACCUUCAGAUCAUUCUCCGGUCUAAGGUGUAACACCUUUGCAGUACGUCAUGGGUGAUCUAAUACUUCCCCUUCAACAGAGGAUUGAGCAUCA | 0.173 ratio
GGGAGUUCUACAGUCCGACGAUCUCUUAAUCAUAGUCUACCAUCAAAUACUUUAGGAGUAUCCUUAAUGUUUAGAUAGAAUAUCCGCAGCAUGCAAUAAUUACAUCCUAAGUUCUCAAGCAGAGGCAGUCUAUUGCAAGGACCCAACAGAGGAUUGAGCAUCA | 2.9 ratio
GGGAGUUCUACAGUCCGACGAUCGCACUUGGCAAUGUAAUAAGUGCCUUGGGAGACAAGAGCAAGAGGGCCACACAUGUCCCCUACCGAGAUUCCAAGCUAACAAGACUACUACAGGAUUCCCUCGGGGGUAAUAGCCAAACACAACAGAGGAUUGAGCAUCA | 0.174 ratio
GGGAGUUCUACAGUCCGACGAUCACCCGCUACACCCAGGGAACAGGUGGUGAUGAGGUUGAUGAUUCAGUGAGUGUAAAUGACACCGAUUUAAGCCUGUACAUCCCAAGAGAUGUAGAUGAAACAGGUAUUACUGUAGCCAGUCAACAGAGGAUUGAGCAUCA | 0.148 ratio
